Published values from different studies.
Every numbered part comes from another study and shows a few of its results, in no order. ± marks the error that the study gave.
Chain of UniProt P13393 (whole entry, looked up): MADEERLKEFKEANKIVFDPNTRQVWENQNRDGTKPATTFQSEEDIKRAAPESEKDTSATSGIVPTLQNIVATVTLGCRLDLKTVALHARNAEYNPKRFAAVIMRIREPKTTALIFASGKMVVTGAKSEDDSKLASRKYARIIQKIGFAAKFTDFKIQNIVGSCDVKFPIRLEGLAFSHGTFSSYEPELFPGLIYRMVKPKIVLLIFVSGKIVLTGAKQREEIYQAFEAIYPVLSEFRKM
Chain of UniProt Q00535 (whole entry, looked up): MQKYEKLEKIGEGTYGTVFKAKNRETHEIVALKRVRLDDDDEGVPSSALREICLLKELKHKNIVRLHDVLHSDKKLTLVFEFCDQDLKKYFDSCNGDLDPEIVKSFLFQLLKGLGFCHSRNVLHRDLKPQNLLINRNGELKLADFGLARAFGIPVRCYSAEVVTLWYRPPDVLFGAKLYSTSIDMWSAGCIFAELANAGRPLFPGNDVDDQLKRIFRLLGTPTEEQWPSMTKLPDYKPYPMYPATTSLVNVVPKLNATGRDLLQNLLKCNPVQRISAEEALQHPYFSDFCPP
Chain of UniProt P26368 (whole entry, looked up): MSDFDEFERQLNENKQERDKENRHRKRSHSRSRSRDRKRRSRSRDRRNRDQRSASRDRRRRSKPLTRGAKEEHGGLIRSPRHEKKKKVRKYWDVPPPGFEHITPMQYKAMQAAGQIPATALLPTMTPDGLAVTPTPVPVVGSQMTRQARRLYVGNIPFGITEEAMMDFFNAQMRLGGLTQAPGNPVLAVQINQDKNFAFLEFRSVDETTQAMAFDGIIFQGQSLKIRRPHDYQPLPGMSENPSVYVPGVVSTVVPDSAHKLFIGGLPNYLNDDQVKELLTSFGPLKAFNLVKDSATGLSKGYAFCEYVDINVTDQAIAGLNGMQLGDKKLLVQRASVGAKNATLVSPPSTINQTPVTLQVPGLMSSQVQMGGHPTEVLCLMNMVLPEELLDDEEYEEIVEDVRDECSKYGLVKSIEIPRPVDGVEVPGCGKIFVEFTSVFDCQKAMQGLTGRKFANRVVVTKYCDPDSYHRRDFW

Series 1
Target: PP6C (human)
Observed: co-immunoprecipitation
Method: IP-MS
Cell line: CYB5R4 knockout cells
Concentration: concentration not given
Relative to: CYB5R4 knockout over parental
Molecule | log2 fold change
histone H1.2 human | -0.32
Tropomyosin alpha-4 chain (human) | 0.55
human alpha-enolase | 1.36
Triosephosphate isomerase (human) | 0.58
human dynamin-1-like protein | -0.32
Tropomyosin alpha-1 chain (human) | -0.04
human GCN1 | -0.71
plectin (human) | 0.58

Mixed results
TGM2: TGM2 2-687 (Homo sapiens, UniProt P21980)
Chain of UniProt P21980 (whole entry, looked up): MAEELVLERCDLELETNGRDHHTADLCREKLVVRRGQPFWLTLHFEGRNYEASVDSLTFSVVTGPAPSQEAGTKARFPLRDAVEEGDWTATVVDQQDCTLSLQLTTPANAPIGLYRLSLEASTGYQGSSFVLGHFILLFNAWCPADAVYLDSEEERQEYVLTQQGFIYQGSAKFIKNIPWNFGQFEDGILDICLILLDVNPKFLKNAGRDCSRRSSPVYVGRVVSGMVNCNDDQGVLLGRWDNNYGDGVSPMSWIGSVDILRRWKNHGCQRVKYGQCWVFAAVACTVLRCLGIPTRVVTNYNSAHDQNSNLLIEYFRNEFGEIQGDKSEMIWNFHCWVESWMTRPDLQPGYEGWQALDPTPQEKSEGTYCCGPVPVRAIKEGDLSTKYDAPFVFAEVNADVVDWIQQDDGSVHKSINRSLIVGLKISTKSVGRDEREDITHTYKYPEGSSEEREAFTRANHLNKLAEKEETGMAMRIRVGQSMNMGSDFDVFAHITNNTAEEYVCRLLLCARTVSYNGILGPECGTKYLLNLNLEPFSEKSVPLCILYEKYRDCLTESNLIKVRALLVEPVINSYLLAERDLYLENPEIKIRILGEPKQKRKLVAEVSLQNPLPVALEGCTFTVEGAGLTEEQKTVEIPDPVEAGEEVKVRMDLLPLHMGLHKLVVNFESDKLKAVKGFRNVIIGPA
Molecule | target or system | assay | test system | conditions | scale | endpoint | value
CUUCUAGUU (ssRNA) | U2AF2 148-342 (Homo sapiens, UniProt P26368) | sequencing of bound RNA | RNA | motif only | – | Kd | 8.16 µM
GGGAGCAGGAGAGAGGUCAGAUGAUACGAGAGAUGUAGCCUCUUUUAUUGCGUCCUAUGCGUGCUAGUGUGA (ssRNA; 2'-fluoro pyrimidines) | TGM2 | SPR | RNA | added: MgCl2 5 mM | higher = more binding | relative binding | 34.4 RU
Malic enzyme 2 S106K (human) | – | enzyme activity, NADH absorbance | – | without fumarate, added: L-malate varied | – | Hill coefficient | 1.74 ± 0.06
KEAFWDRCLSVINLMASKMLQINA | Cyclin-dependent kinase 5, with p25 (CDK5, Homo sapiens, UniProt Q00535) | phosphotransferase activity, radiometric | peptide | concentration not given, 10% DMSO, added: histone substrate | relative to: p5-WT peptide | activity change | 28%
GGGAGCAGGAGAGAGGUCAGAUGAACGAGAGAUGGUAGGCCUUUGAUGAUGCUCCUAUGCGUGCUAGUGUGA (ssRNA; 2'-fluoro pyrimidines) | TGM2 | SPR | RNA | added: MgCl2 5 mM | higher = more binding | relative binding | 127 RU
CTOP | – | RP-HPLC | HALO Peptide ES-C18 column | 25 µM, acetic acid/methanol, 10 min gradient | – | retention time | 7.68 min
TGGATCAATCGAGAATTCCTGGTATGGTATAAAGATCAAGTCAATCGGTCC (dsDNA; 5'-amino-C6 primer) | SPT15 full length assumed (Saccharomyces cerevisiae, UniProt P13393) | array | double-stranded DNA, one strand shown | TBP alone | – | Kd | 0.212 ± 0.159 µM
human ME2 T76N | – | enzyme activity, NADH absorbance | – | with fumarate 3 mM, added: L-malate varied | – | Hill coefficient | 1.08 ± 0.03

A few entries again (mixed results):
Molecule | target or system | assay | test system | conditions | scale | endpoint | value
Malic enzyme 2 S106K (human) | – | enzyme activity, NADH absorbance | – | without fumarate, added: L-malate varied | – | Hill coefficient | 1.74 ± 0.06
GGGAGCAGGAGAGAGGUCAGAUGAUACGAGAGAUGUAGCCUCUUUUAUUGCGUCCUAUGCGUGCUAGUGUGA (ssRNA; 2'-fluoro pyrimidines) | TGM2 | SPR | RNA | added: MgCl2 5 mM | higher = more binding | relative binding | 34.4 RU
